Results pooled from the literature.
Each numbered part is a random draw from the data of one study; scales do not carry over between parts. Values joined by “and” are separate records of one study, mostly repeats; a detail may differ.
UniProt P36897, sequence (whole entry, looked up): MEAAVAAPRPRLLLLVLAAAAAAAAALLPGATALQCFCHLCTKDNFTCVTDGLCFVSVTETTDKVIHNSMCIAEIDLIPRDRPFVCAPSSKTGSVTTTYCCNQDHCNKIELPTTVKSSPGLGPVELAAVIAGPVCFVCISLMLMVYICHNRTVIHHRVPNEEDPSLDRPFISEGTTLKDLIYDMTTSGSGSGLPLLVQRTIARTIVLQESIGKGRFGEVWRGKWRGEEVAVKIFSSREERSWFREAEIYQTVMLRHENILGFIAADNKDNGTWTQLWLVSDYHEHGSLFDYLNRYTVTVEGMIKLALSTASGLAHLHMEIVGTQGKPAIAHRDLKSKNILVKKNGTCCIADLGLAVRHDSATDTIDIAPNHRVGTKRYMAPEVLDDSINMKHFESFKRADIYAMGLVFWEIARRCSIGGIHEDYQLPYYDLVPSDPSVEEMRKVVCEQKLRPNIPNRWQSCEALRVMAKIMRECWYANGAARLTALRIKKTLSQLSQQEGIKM
UniProt P37173, sequence (whole entry, looked up): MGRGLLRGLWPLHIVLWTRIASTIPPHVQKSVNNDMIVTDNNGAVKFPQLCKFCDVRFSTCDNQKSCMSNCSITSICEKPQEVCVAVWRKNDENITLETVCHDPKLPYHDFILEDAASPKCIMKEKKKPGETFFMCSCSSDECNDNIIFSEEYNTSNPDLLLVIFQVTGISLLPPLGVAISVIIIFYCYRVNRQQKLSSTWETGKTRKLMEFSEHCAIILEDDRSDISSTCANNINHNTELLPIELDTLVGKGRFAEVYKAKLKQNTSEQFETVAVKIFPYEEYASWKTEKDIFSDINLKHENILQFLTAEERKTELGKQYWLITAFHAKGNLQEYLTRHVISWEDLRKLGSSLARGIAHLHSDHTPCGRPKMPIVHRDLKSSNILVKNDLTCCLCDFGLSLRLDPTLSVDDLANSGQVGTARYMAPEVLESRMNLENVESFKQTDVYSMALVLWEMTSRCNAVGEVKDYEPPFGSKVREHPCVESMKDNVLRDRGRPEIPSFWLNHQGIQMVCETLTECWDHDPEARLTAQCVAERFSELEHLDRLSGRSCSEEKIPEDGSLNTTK
UniProt P28482, sequence (whole entry, looked up): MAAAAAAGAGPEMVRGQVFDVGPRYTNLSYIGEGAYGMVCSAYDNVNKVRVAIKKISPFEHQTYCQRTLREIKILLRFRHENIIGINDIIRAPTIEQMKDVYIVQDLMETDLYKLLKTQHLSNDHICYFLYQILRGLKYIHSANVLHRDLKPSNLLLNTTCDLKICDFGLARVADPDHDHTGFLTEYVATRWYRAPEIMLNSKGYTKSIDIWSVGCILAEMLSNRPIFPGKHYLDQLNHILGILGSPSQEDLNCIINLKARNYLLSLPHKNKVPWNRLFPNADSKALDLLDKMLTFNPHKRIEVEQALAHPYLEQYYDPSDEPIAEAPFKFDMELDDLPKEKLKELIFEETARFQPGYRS
UniProt O15530, sequence (whole entry, looked up): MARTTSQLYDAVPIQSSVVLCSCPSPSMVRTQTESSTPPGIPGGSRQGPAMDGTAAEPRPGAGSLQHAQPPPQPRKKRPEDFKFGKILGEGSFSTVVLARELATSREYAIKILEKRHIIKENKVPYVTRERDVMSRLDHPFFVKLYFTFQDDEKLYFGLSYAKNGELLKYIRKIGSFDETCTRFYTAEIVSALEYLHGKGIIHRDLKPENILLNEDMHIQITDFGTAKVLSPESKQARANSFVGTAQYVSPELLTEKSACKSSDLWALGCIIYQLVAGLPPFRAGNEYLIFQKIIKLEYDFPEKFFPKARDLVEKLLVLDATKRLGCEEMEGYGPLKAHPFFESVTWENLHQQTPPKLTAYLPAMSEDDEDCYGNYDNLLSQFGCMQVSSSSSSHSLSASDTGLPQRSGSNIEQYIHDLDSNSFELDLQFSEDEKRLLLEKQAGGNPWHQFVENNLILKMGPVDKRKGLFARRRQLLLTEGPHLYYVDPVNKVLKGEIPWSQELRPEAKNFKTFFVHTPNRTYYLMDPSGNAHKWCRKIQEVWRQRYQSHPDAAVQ
UniProt Q14164, sequence (whole entry, looked up): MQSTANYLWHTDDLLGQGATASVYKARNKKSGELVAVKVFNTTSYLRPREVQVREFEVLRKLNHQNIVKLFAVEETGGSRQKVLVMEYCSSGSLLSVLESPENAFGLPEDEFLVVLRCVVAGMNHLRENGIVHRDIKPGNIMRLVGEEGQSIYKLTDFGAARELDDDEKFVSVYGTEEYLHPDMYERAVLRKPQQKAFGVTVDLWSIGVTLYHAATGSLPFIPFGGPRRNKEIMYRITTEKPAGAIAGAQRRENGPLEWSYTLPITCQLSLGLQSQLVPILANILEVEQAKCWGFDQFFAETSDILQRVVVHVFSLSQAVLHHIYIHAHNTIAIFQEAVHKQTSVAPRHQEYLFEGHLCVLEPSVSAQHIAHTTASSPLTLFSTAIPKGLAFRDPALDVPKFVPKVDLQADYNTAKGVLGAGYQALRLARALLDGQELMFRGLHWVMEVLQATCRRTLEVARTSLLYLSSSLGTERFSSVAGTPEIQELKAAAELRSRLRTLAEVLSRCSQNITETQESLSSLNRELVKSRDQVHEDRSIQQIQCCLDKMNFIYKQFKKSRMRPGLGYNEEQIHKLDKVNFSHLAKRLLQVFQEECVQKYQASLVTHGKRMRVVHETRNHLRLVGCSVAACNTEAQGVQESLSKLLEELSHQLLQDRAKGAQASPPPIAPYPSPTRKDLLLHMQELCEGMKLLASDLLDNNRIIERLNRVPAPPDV
UniProt Q9NY57, sequence (whole entry, looked up): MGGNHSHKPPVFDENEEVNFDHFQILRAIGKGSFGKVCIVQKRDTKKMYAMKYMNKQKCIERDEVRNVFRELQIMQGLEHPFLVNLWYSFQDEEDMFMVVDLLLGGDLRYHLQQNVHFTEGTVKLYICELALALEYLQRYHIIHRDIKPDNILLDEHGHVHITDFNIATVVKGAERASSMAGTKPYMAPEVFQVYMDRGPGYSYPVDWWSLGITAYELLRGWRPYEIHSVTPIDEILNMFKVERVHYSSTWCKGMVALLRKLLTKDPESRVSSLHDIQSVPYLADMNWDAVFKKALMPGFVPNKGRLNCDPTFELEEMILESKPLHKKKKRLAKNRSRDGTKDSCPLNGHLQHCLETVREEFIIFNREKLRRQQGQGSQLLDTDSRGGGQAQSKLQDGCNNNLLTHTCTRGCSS
UniProt P00519, sequence (whole entry, unmodified, looked up): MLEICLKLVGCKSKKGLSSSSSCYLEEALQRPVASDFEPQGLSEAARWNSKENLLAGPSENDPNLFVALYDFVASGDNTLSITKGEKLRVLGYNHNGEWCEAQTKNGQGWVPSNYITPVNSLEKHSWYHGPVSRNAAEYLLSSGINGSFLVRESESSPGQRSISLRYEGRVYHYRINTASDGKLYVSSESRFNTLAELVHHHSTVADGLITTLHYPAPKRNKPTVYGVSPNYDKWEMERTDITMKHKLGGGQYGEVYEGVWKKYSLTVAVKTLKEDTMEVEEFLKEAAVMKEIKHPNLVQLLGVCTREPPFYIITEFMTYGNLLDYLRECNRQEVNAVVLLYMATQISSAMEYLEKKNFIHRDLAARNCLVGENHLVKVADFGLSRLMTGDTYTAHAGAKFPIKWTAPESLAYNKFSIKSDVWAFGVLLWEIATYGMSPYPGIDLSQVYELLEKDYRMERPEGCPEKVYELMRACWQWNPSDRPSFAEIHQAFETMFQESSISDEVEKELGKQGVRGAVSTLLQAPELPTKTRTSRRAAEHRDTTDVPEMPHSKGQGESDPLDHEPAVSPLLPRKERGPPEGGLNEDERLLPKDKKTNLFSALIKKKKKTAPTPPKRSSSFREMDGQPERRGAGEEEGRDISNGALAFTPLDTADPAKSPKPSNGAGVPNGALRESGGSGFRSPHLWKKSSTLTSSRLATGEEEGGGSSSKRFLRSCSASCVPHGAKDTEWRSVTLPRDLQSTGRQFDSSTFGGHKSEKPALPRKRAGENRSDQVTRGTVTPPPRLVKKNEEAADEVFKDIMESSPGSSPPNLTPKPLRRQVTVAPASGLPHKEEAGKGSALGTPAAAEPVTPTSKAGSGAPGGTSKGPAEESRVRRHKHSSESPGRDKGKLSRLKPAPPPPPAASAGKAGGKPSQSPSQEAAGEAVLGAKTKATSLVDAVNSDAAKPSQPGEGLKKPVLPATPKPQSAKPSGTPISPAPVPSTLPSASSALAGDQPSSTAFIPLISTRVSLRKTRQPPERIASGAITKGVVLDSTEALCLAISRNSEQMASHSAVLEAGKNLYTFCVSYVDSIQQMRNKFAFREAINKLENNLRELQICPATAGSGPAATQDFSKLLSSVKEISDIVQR
UniProt Q9Y2U5, sequence (whole entry, looked up): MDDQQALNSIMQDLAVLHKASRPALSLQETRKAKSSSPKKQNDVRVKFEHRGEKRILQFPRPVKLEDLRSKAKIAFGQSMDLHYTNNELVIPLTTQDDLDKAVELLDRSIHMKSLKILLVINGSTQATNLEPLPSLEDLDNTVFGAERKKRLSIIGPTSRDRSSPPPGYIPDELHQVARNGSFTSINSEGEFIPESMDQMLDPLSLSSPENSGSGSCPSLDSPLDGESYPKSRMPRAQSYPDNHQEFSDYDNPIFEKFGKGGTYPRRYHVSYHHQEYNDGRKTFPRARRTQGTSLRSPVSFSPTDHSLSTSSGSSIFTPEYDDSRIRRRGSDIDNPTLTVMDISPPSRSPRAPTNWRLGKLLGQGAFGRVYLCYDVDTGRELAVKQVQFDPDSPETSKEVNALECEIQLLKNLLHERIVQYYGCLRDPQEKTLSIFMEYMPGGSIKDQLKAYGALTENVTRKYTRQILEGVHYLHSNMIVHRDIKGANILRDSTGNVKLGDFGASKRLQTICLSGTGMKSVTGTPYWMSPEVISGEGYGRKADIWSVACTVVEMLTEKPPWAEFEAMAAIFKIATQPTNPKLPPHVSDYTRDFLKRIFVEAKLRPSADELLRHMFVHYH

Sample 1 — relative to: vehicle; endpoint: enzyme activity
Compound: Ic1ccc(Nc2nc(NCCN3CCOCC3)nc(N3CCOCC3)n2)cc1
tested on = wild-type human fibroblasts; test = GCase activity, 4-MUG hydrolysis lysate; setting = 0.5 µM, 72 h; result = 115% and 120% and 109% and 122% and 139%
tested on = wild-type human fibroblasts; test = GCase activity, 4-MUG hydrolysis lysate; setting = 1 µM, 72 h; result = 139% and 116% and 141%
tested on = L444P/L444P Gaucher fibroblasts; test = 4-MUG hydrolysis in lysate; setting = 10 µM, 72 h; result = 166% and 124% and 142% and 174% and 127%
tested on = L444P/L444P Gaucher fibroblasts; test = 4-MUG hydrolysis in lysate; setting = 0.1 µM, 72 h; result = 103% and 106% and 101% and 110% and 98.2% and 109% and 91.2%
tested on = wild-type human fibroblasts; test = GCase activity, 4-MUG hydrolysis lysate; setting = 1 µM, 48 h; result = 115% and 110% and 105% and 113%
tested on = L444P/L444P Gaucher fibroblasts; test = 4-MUG hydrolysis in lysate; setting = 0.5 µM, 72 h; result = 110% and 141% and 139% and 117% and 111% and 113%
tested on = L444P/L444P Gaucher fibroblasts; test = 4-MUG hydrolysis in lysate; setting = 1 µM, 72 h, without ISRIB; result = 120% and 130% and 124% and 111% and 112% and 115% and 116% and 113%
tested on = glucocerebrosidase L444P (human); test = 4-MUG hydrolysis in lysate; test system = Gaucher fibroblasts L444P/L444P; setting = 1 µM, 72 h; result = 169%
tested on = glucocerebrosidase L444P (human); test = 4-MUG hydrolysis in lysate; test system = Gaucher fibroblasts L444P/L444P; setting = 0.1 µM, 72 h; result = 105%

Sample 2 — method: phase 2a trial; species: patients with IPF; endpoint: share of patients with TEAE
SMILES: CC(C)n1cnc(-c2ccc(F)cc2)c1-c1ncc(C(=O)Nc2ccc(N3CCN(C)CC3)cc2)[nH]1
dose = dose not given; notes = upper respiratory infection, grade 1, pooled arms; result = 0%
dose = 60 mg once daily; notes = skin and subcutaneous disorders, grade 3; result = 0%
dose = 60 mg once daily; notes = skin and subcutaneous disorders, grade 5; result = 0%
dose = dose not given; notes = upper respiratory infection, grade 5, pooled arms; result = 0%
dose = dose not given; notes = skin disorders, grade 4, pooled arms; result = 0%
dose = 30 mg once daily; notes = skin and subcutaneous disorders, grade 4; result = 0%
dose = dose not given; notes = upper respiratory infection, grade 4, pooled arms; result = 0%
dose = 30 mg once daily; notes = skin and subcutaneous disorders, grade 5; result = 0%

Sample 3 — read-out: cell-free assay; method: competition with immobilised ligand; tested at: 1 µM; endpoint: remaining binding
SMILES: CC(=O)c1c(NS(C)(=O)=O)c2cc(-c3ccc(Cl)cc3)c(-c3ccc(Cl)cc3Cl)nc2n(C)c1=O
target = KIT (Homo sapiens, UniProt P10721, V559D); result = 100%
target = CASK (Homo sapiens, UniProt O14936); result = 92%
target = BTK (Homo sapiens, UniProt Q06187); result = 84%
target = COQ8B (Homo sapiens, UniProt Q96D53); result = 97%
target = Tyrosine-protein kinase ABL1, phosphorylated (ABL1, Homo sapiens, UniProt P00519, F317L); result = 89%
target = MAP3K2 (Homo sapiens, UniProt Q9Y2U5); result = 93%
target = FGFR3 (Homo sapiens, UniProt P22607); result = 100%
target = DYRK2 (Homo sapiens, UniProt Q92630); result = 93%
target = PHKG2 (Homo sapiens, UniProt P15735); result = 100%
target = TGFBR1 (Homo sapiens, UniProt P36897); result = 100%
target = ZAP70 (Homo sapiens, UniProt P43403); result = 100%
target = EIF2AK1 (Homo sapiens, UniProt Q9BQI3); result = 83%
target = MAPK1 (Homo sapiens, UniProt P28482); result = 100%
target = MARK3 (Homo sapiens, UniProt P27448); result = 100%
target = PDPK1 (Homo sapiens, UniProt O15530); result = 100%
target = TGFBR2 (Homo sapiens, UniProt P37173); result = 100%
target = MAPK12 (Homo sapiens, UniProt P53778); result = 100%
target = PAK4 (Homo sapiens, UniProt O96013); result = 92%
target = PIK3CA (Homo sapiens, UniProt P42336, C420R); result = 93%
target = MARK2 (Homo sapiens, UniProt Q7KZI7); result = 100%
target = STK32B (Homo sapiens, UniProt Q9NY57); result = 89%
target = PRKCE (Homo sapiens, UniProt Q02156); result = 96%
target = eIF-2-alpha kinase GCN2, C-terminal kinase domain (EIF2AK4, Homo sapiens, UniProt Q9P2K8, S808G); result = 100%
target = TLK1 (Homo sapiens, UniProt Q9UKI8); result = 95%
target = TBK1 (Homo sapiens, UniProt Q9UHD2); result = 92%

Sample 4 — SMILES: Nc1ncnc2c1cnn2-c1ccccc1; read-out: enzyme activity; action: inhibitor; tested at: 0.5 µM; relative to: control; endpoint: remaining activity
target = DAPK1 (Homo sapiens, UniProt P53355); result = 98.5%
target = NEK2 (Homo sapiens, UniProt P51955); result = 98.8%
target = CAMK2D (Homo sapiens, UniProt Q13557); result = 94.7%
target = MAPK9 (Homo sapiens, UniProt P45984); result = 88.2%
target = PRKCA (Homo sapiens, UniProt P17252); result = 103%
target = CAMKK2 (Homo sapiens, UniProt Q96RR4); result = 86.8%
target = cGMP-dependent protein kinase 1, isoform beta (PRKG1, Homo sapiens, UniProt Q13976); result = 107%
target = Cyclin-dependent kinase 4, with cyclin D1 (CDK4, Homo sapiens, UniProt P11802); result = 103%
target = Cyclin-dependent kinase 5, with p25 (CDK5, Homo sapiens, UniProt Q00535); result = 102%
target = CHEK2 (Homo sapiens, UniProt O96017); result = 95.5%
target = IKBKE (Homo sapiens, UniProt Q14164); result = 100%
target = DAPK2 (Homo sapiens, UniProt Q9UIK4); result = 96.7%
target = TGFBR1 (Homo sapiens, UniProt P36897); result = 99.6%
target = OXSR1 (Homo sapiens, UniProt O95747); result = 92.6%
target = MAP3K3 (Homo sapiens, UniProt Q99759); result = 95.5%
target = STK39 (Homo sapiens, UniProt Q9UEW8); result = 107%
target = GRK3 (Homo sapiens, UniProt P35626); result = 105%
target = STK11 (Homo sapiens, UniProt Q15831); result = 93.9%
target = IKBKB (Homo sapiens, UniProt O14920); result = 97.3%
target = STK10 (Homo sapiens, UniProt O94804); result = 95.4%
target = TGFBR2 (Homo sapiens, UniProt P37173); result = 105%

A few entries again (sample 4):
target = MAPK9 (Homo sapiens, UniProt P45984); result = 88.2%
target = PRKCA (Homo sapiens, UniProt P17252); result = 103%
target = CAMKK2 (Homo sapiens, UniProt Q96RR4); result = 86.8%
target = cGMP-dependent protein kinase 1, isoform beta (PRKG1, Homo sapiens, UniProt Q13976); result = 107%
